{"data": "Measurements gathered from unrelated publications", "note": "A part holds a random share of what one study measured. Positions count from the first letter of the parent shown."}
{"data": "Series 1", "target": "HLA class I histocompatibility antigen, A alpha chain, allele A*25:01 (Homo sapiens, UniProt P04439)", "effect on": "peptide-MHC binding", "form": "peptide", "tested at": "concentration not given"}
{"Molecule": "MQDVFTFYV", "binding": "inactive"}
{"Molecule": "RYSHWTKL", "binding": "inactive"}
{"Molecule": "LEYFQFVKKLL", "binding": "inactive"}
{"Molecule": "LVKSAWLSL", "binding": "inactive"}
{"Molecule": "STGKSIKFK", "binding": "inactive"}
{"Molecule": "YILGFAIPI", "binding": "inactive"}
{"Molecule": "VLSDLCNFL", "binding": "inactive"}
{"data": "Series 2", "target": "Hepatocyte nuclear factor 3-beta, forkhead domain (FOXA2, Homo sapiens, UniProt Q9Y261, residues 142-269)", "method": "protein-binding microarray", "form": "hairpin DNA", "medium": "in vitro", "tested at": "not given", "setting": "whole hairpin DNA, median over replicate spots", "reference": "not given", "reading": "higher = stronger binding", "Construct (chain)": "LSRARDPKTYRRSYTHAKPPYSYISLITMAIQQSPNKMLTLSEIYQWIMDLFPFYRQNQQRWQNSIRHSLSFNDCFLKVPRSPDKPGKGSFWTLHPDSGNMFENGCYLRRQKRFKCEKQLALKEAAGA"}
{"Oligonucleotide": "GAGGCCATGTCGACAACGCCTCCTGGCGTTGTCGACATGGCCTCACACTC (5mC at 33)", "median fluorescence": "3290 a.u."}
{"Oligonucleotide": "GAGGCCGTGTAACCAACGCCTCCTGGCGTTGGTTACACGGCCTCACACTC (5mC at 38)", "median fluorescence": "3120 a.u."}
{"Oligonucleotide": "GAGGCCATGTAAACAACGCCTCCTGGCGTTGTTTACATGGCCTCACACTC", "median fluorescence": "4810 a.u."}
{"Oligonucleotide": "GAGGCCACGTAACCAACGCCTCCTGGCGTTGGTTACGTGGCCTCACACTC (5mC at 36)", "median fluorescence": "3150 a.u."}
{"Oligonucleotide": "GAGGCCATGTAGCCAACGCCTCCTGGCGTTGGCTACATGGCCTCACACTC (5mC at 33)", "median fluorescence": "3240 a.u."}
{"Oligonucleotide": "GAGGCCATTCAAACAACGCCTCCTGGCGTTGTTTGAATGGCCTCACACTC", "median fluorescence": "2970 a.u."}
{"Oligonucleotide": "GAGGCCGTGTAACCAACGCCTCCTGGCGTTGGTTACACGGCCTCACACTC", "median fluorescence": "3290 a.u."}
{"Oligonucleotide": "GAGGCCAAGTAAACAACGCCTCCTGGCGTTGTTTACTTGGCCTCACACTC", "median fluorescence": "4760 a.u."}
{"data": "Series 3", "target": "CCND2, cyclin fold, Cln2 fusion (human)", "method": "yeast growth competition, sequencing", "medium": "yeast", "setting": "strong parent motif", "reference": "not given", "reading": "higher = stronger binding", "parent": "viral docking peptide; YKVKRRLVFGADD; partner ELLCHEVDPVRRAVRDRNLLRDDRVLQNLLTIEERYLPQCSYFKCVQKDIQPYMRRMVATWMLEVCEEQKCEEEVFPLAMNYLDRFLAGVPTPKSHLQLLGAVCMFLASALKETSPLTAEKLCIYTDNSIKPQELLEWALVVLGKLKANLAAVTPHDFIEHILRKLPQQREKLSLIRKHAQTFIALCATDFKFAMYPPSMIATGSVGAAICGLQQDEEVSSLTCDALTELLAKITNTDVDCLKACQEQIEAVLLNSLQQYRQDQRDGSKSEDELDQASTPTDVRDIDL"}
{"Change": "R5F", "normalised enrichment score": 0.0747}
{"Change": "L7M", "normalised enrichment score": 0.704}
{"Change": "D12R", "normalised enrichment score": 0.174}
{"Change": "R6E", "normalised enrichment score": 0.667}
{"Change": "V3H", "normalised enrichment score": 0.297}
{"Change": "F9M", "normalised enrichment score": 0.219}
{"Change": "V3Y", "normalised enrichment score": 0.81}
{"data": "Series 4", "target": "UBE2D2 UBC core domain (UniProt P62837)", "method": "yeast two-hybrid", "medium": "yeast", "setting": "mostly zero background", "reference": "not given", "reading": "higher = stronger interaction", "B1": "RNF6 RING domain (UniProt Q9Y252); chain NSIDSELGKICSVCISDYVTGNKLRQLPCMHEFHIHCIDRWLSENCTCPICRQPVLGSNIAN", "B2": "ZMYND11 RING domain (UniProt Q15326); chain DEIDWETENHDWYCFECHLPGEVLICDLCFRVYHSKCLSDEFRLRDSSSPWQCPVCRSIKKKNTNKQEM", "B3": "RNF182 RING domain (UniProt Q8N6D2); chain AESQASDELECKICYNRYNLKQRKPKVLECCHRVCAKCLYKIIDFGDSPQGVIVCPFCRFETCLPDDEV", "B4": "RNF186 RING domain (UniProt Q9NXI6); chain HSGSTECDLECLVCREPYSCPRLPKLLACQHAFCAICLKLLLCVQDNTWSITCPLCRKVTAVPGGLI", "B5": "RNF103 RING domain (UniProt O00237); chain WPADMLHCTECVVCLENFENGCLLMGLPCGHVFHQNCIVMWLAGGRHCCPVCRWPSYKKKQPY", "sequence of UniProt P62837 (whole entry, looked up)": "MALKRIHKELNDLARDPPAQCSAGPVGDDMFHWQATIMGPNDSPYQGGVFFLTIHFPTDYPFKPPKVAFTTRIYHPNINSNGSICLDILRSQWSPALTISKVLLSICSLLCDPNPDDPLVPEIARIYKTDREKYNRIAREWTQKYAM"}
{"Molecule": "B1 (RNF6 RING domain)", "lacZ reporter activity": 0}
{"Molecule": "B2 (ZMYND11 RING domain)", "lacZ reporter activity": 0}
{"Molecule": "B3 (RNF182 RING domain)", "lacZ reporter activity": 0}
{"Molecule": "LEALSSDFLACKICLEQLRAPKTLPCLHTYCQDCLAQLADGGRVRCPECRETVPVPPEGV (TRIM56 RING domain (UniProt Q9BRZ2))", "lacZ reporter activity": 0}
{"Molecule": "B4 (RNF186 RING domain)", "lacZ reporter activity": 12500}
{"Molecule": "FAEQPSVKLCCQLCCSVFKDPVITTCGHTFCRRCALKSEKCPVDNVKLTVVVNNI (TRAF7 RING domain (UniProt Q6Q0C0))", "lacZ reporter activity": 0}
{"Molecule": "B5 (RNF103 RING domain)", "lacZ reporter activity": 16800}
{"Molecule": "ASEEEFQFLRCQQCQAEAKCPKLLPCLHTLCSGCLEASGMQCPICQAPWPLGADTP (PML RING domain (UniProt P29590))", "lacZ reporter activity": 0}
{"note": "A few entries again (series 2):"}
{"Oligonucleotide": "GAGGCCATGTAGCCAACGCCTCCTGGCGTTGGCTACATGGCCTCACACTC (5mC at 33)", "median fluorescence": "3240 a.u."}
{"Oligonucleotide": "GAGGCCATTCAAACAACGCCTCCTGGCGTTGTTTGAATGGCCTCACACTC", "median fluorescence": "2970 a.u."}
{"Oligonucleotide": "GAGGCCGTGTAACCAACGCCTCCTGGCGTTGGTTACACGGCCTCACACTC", "median fluorescence": "3290 a.u."}
